Measurements from different studies.
Numbered parts are unrelated; each lists some results of a single study. Positions count from the first letter of the parent shown.

Study 1 — technique: protein binding microarray; form: double-stranded DNA, one strand shown; sample: in vitro; concentration: not given; reference: not given; reading: higher = stronger binding; endpoint: E-score
Target: Histone acetyltransferase KAT6A, both winged helices, GST fusion (KAT6A, Homo sapiens, UniProt Q92794, residues 1-181)
Notes: 8-mer, flanks averaged, mean of 2 arrays, mostly near background
Construct (chain): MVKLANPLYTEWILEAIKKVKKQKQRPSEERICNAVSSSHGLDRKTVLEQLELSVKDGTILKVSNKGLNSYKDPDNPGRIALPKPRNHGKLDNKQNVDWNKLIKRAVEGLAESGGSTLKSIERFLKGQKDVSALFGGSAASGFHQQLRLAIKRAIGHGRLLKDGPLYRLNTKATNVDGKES
GGACGAAA: 0.147
CAGCCATA: -0.0549
GCGCAACA: 0.205
CGATCTCC: -0.0332
CGCTAATA: 0.223
CTAGACGA: -0.0832
GTATTCTA: -0.0486
ACGGCTTG: 0.229
AAGTTTTG: -0.132
CCCCTGGA: -0.11
CGATGTAA: 0.109
AGGGTGTA: -0.157
CTTTTTCA: -0.166
AGGAACGG: 0.143
CCGACTAA: 0.0926

Study 2 — target: CCNB2, cyclin fold, Cln2 fusion (human); technique: yeast growth competition, sequencing; sample: yeast; notes: weak parent motif; reference: not given; reading: higher = stronger binding; endpoint: normalised enrichment score
Starting sequence: CENPC docking peptide (human); VKTKKRLNFDDKV
VKTKKRLAFDDKV [N8A]: 0.664
VKTKRRLNFDDKV [K5R]: 1.29
VKTKARLNFDDKV [K5A]: 0.56
VKAKKRLNFDDKV [T3A]: 0.212
VKTKKRLNFDAKV [D11A]: 0.722
VKTKKRLNFDDAV [K12A]: 0.568
VKTKKRLNFDDKA [V13A]: 0.153

Study 3 — technique: EMSA with sequencing; form: double-stranded DNA, one strand shown; sample: in vitro; concentration: 10 and 20 nM; reference: negative control set to 0; reading: higher = stronger binding; endpoint: normalised bound fraction
Target: Hepatocyte nuclear factor 3-alpha (Foxa1, Mus musculus, UniProt P35582, residues 1-468, full length assumed)
Notes: whole designed probe, mean of two concentrations, ends assumed
Residues (chain): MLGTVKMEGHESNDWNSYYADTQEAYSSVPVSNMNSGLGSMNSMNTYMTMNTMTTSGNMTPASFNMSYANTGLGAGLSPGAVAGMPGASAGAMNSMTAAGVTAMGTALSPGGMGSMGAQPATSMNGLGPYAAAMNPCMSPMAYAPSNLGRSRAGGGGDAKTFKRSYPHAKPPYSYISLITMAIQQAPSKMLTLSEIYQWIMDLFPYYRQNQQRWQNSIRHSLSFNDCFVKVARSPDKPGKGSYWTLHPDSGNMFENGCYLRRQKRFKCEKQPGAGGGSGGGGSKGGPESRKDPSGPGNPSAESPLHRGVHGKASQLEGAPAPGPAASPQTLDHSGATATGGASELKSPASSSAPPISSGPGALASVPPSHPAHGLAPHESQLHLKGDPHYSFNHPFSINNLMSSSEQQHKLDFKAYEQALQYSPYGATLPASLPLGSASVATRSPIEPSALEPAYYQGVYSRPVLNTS
GTGAGCGGTGCCCATTGATGGGGAACATCTTCCCCCTCTTCCTTGCCCCACCAGCTCACCTACGGGGGTTATTTGCAGATAGGAAAATAAATAAAGCCGGCATTCGTTAACCCTCTTCTGGCGCAAACTGCTGTTTGCTCTGGATGAATCATGGTCCTTTGGCGACGCCAGGCTCCGGGAGAGCAAAGCACCGTGTCAGGGCCATGATCCGGGCTCGCCTTTCACTGGGATCGTGGGGAC: 0.333 ratio
GTGAGCGGTGCCCATTGATGGGGAACAGGTGAATTGGCTGCTTCCATCCTGGCTTGGAACTTCAGACATAGAAGCCTTGGGACTTTCTCAGGACTTCTGACTCATGCTCTCCAGATTCAGCAAACAAGCATCTCTGTGGATCACGTGACCTTAGCCAGGGATGTTGGTGAAACTGTGTGTTGGTCTAGGTACCTAGCCCATGCTAGGTGCTCATCGAATTTTCACTGGGATCGTGGGGAC: 0.0546 ratio
GTGAGCGGTGCCCATTGATGGGGAACTAATTGACAATAGTAGATGAGTTAGCCAGGAGACTAAATACAGGTGAAAGGATGACAGCGCTAGATCTTGACACAAATTACCTTAATGGCTGTGCAAATAGTAAGCTGGATACGATTTTTTGAAAACAAACCAAGCTAAACAATCCATTGAAGTGCTCTCTTCCATCTATACCCAGAAACAGCAATTTAGCTTTTTCACTGGGATCGTGGGGAC: 0.292 ratio

Study 4 — technique: DHFR PCA, deep sequencing; sample: yeast; added: (+)-ABA 4.8 µM; reference: wild-type fitted maximum; reading: higher = stronger binding; endpoint: relative binding score
Target: ABI1, truncated, D143A, DHFR fusion (Arabidopsis thaliana)
Notes: methotrexate growth selection, single substitutions
Starting sequence: PYL1, truncated, DHFR fusion (Arabidopsis thaliana); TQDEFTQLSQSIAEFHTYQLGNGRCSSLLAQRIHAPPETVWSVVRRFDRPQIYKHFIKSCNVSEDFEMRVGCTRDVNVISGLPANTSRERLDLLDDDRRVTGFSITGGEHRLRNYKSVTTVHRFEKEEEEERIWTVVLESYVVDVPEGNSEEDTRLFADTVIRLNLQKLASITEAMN
L164D: -2.24%
I33D: -10.8%
D3A: 71.9%
A35E: 11%
D3H: 59.7%
I133T: 83.3%
E152H: 57.3%
W134A: 58.8%
T6E: 82%
T6P: 82.2%
L169K: -1.97%
R46E: 35.1%
Q167Y: 14.5%
G21N: 65%
R113F: 32.3%
L166R: -1.78%
E127W: 53.6%
H122L: 4.46%
E147L: 61.1%
Y115L: -0.704%
V43F: 44.7%
E67S: 61.6%
I33A: 0.636%
S9W: 52%
S117E: 0.0368%

Study 5 — technique: RNA Bind-n-Seq; form: RNA; sample: in vitro; concentration: 365 nM; reference: no-protein control; reading: higher = stronger binding; endpoint: RBNS enrichment (R)
Target: RNA binding protein fox-1 homolog 2, RRM domain, GST-SBP tag (RBFOX2, Homo sapiens, UniProt O43251-10, residues 100-194)
Notes: natural RNA segment, single round, ends assumed
Constant ends, left off below: GGGAGUUCUACAGUCCGACGAUC … UGGAAUUCUCGGGUGCCAA
Construct (chain): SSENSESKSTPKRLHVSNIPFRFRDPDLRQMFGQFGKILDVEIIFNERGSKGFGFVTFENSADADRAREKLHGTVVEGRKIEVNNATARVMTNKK
GUGGAAAGUGCCCCUCAAAAGCAUUUGUGUGGCCACAUGAACUGGCUGGCACCAGGGGAGUGAAACUGGCUGAUGACCAGCUGAGCCACUUUGUGCCAACAGAGGAUGGA: 0.272
AAGUGCUGGGUUCUCCAAGAGCGAUGGCGGCGUCUGUGUAGGUGCUCGCCCACCGUUACCCUCUUCUUGUAUCUGAAUAUCAGAAACUAGAAAGUCCAACAGUGACACUC: 0.167
GAGCCAACUCUGAUGGGAGGUGAGUUUGGGGACGAGGACGAAAGGCUAAUCACUAGAUUAGAAAACACGCAAUAUGAUGCGGCCAACGGCAUGGACGACGAGGAGGACUU: 0.406
ACACCUAACAUGAGACGUGGCAUGUGAGAUGAGACUUGGCAUGUGAGACAUAGGGUCACUAGAGACCCUUCUGGGUCAGAGGAGAGAGACUGAAUUGGACUAAACCCGUC: 0.862
CUCAUAUGUGGGGUGUAGUCACGUCAGUGACUUCCUGGGAAUUGCUUGUUUCAGAUCAUAUUGAUCUCUUUCCUUUUGUCUCUCACCGUAUGGUAUGACUUGAAUCAGUU: 1.87
CACGAUGCUGCUCUGGUGAUUCUUGUACCUAAUCUGGUGUGCUCACCAAUGAGUGAAAGGGAUCGUGGGUCAGGGACACCGAGAGAGUGAGGUCACUUCCACUUCAAACC: 0.224
ACAACCCGGCCUACAUGGAUGCCCCGAAGGCGGCCCUCUGAGCAUUCCCUGGCCUCUCUGGCUGCCACUUGGUUAUGUUGUGUGUGUGCGUGAGUGGUGUGCAGGCGCGG: 0.849
ACAGCUGUUCCCUCGCAUGUUAUUUCAUGAACAUGACCUGUUUUCGUGCACUAGACACACAGAGUGGAACAGCCGUAUGCUUAAAGUACAUGGGCCAGUGGGACUGGAAG: 0.42
CUGAGGUAUGUUUAAUCUAGGCAGGUACGUUUAAGGAUAUUUUGAUCUAUUUAUAAUGAAUUCACAAUUUAUGCCUAUAAAUUUCAGAUGAUUUAAAAUUUUAAACCUGU: 0.525
AAAAAAUUAGCUGGGUGUGAUGGCACACACCUGUUGUCCCAGCUACUCAAGAAGCUGAGAUGGGAGGAUCCUGAGCUCAGGAGGUCAAGGCUGCAGUGAGCCGAGAUUGU: 0.426
CAGCUACUUCACACUGAGUACCUCAAAUCUGCUCUGGAGUCGAUUAUGCCACCUGUGUGUCAGGAUGCACCUGAAAGCCCUCGGCUCGGUCCUUAGACCAUCUUCCUACA: 0.244
CAAAAAACCCGCGACUUUAAAAUGAAAUAACGUGAGCCCAGAUGGGGAAGCUGAAGGGCUGGGCACUAGGAGGAGAUGCUGCUGCCAACCGAUCCUGGGGCUUUUCCCGC: 0.519

Study 6 — technique: competition protein-binding microarray; form: double-stranded DNA, one strand shown; sample: in vitro; concentration: 2 µM; added: Cbf1 competitor, 0.05 µM; reading: higher = stronger binding; endpoint: fluorescence intensity; constant ends, left off below: … GTCTTGATTCGCTTGACGCTGCTG
Target: Phosphate system positive regulatory protein PHO4, full length, GST-tagged (PHO4, Saccharomyces cerevisiae, UniProt P07270, residues 1-312)
Notes: whole 60-bp probe, lowest competitor level
Residues (chain): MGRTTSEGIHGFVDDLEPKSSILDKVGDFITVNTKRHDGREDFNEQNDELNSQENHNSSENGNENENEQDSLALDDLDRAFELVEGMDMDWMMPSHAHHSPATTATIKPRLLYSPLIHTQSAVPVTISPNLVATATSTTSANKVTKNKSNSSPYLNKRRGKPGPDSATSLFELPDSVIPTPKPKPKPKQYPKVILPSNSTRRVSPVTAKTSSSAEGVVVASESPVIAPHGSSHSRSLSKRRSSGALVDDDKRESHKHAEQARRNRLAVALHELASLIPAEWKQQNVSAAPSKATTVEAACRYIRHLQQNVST
AAATTACTAAGTTTTCACGTGTGATACCCCGTATGA: 13400 a.u.
CATACCCAACCTTGTACTGTGGGTGAAGATATTTGT: 4280 a.u.
CTAACGAAGGTTTGAACCGTGGGTGACAAGCCAAGT: 7140 a.u.
GCAATCTTCCTGAATCACCTGGCACTTTAGATGAAA: 3550 a.u.
AAATCTTTCCTCAACCGCGTGTTTTCGTCTTTACCA: 10200 a.u.
TTACATCATTGGCAACACATGCCTGGATCGCTTTAG: 9880 a.u.
ATGTTGGAGTTGGGACCGATGAAGTCAGCTTCAATT: 3280 a.u.
AAAGCGGTAATTTTTCACGTGCTATCAAATATCTAT: 14000 a.u.
CTGGAACTAGATCGGCACGCAACTTTTGTGGGCGAG: 6740 a.u.
TTACTTCAAAATCACCACGTGTTGAAGAGACTTCAA: 18700 a.u.
CGTCCTAGTGATTGTCACTGTACTTCCATGAGGAAG: 4450 a.u.
GCAGGTTCATTTACCTATGTGACGGGAGCTTCCATC: 3170 a.u.
TCTTCTTTTTGCCTCCACGGGCCGCAGATCTGTGTT: 7120 a.u.
CCATTGGAAACAGTGCTCGTGCATCTTGATGTTATT: 10200 a.u.
ACTCCCGGTTATCTAGACGTGTTGATCTTGGACACT: 4770 a.u.
GGATTATTGATAGCCAACGTGCTTTGTTGGAAGACG: 14400 a.u.
